Assay results from different studies.
A part holds a random share of what one study measured. Positions count from the first letter of the parent shown.

Sample 1 — method: protein-binding microarray; form: double-stranded DNA, one strand shown; matrix: in vitro; tested at: 2540 nM top; notes: 60-bp whole probe; added: salmon DNA 0.4 mg/ml; reference: random background probes; direction: higher = stronger binding; endpoint: fitted relative affinity; all sequences stand within: GCCTAGCAC … GTCTTGATTCGCTTGACGCTGCTG
Target: Interferon regulatory factor 3, full length, phosphomimetic (IRF3, Homo sapiens, UniProt Q14653, residues 1-427, S386D/S396D/S398D/S402D/T404D/S405D)
Sequence of UniProt Q14653 (whole entry, unmodified, looked up): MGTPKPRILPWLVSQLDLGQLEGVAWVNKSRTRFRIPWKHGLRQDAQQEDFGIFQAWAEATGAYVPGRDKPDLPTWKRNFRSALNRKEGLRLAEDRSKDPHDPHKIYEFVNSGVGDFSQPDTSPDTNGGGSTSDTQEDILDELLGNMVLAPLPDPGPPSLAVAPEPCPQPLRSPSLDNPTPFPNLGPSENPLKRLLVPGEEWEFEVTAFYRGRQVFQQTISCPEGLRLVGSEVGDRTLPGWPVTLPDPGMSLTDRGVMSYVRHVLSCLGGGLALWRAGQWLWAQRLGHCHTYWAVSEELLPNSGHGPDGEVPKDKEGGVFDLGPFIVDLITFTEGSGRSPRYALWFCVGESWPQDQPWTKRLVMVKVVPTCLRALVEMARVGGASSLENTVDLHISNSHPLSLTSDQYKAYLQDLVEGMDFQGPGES
Sequence = GACGGTTTCGGTCTCGGTACGTGCTAG; result = 8.67 z-score
Sequence = GACGGTTCCGGTTACGGGACGTGCTAG; result = 3.36 z-score
Sequence = TATCAGTTTAATATCTAAGAGTGCTAG; result = 3.09 z-score
Sequence = TCATTTACAGGTTCTCTTACTGTGCTA; result = 1.62 z-score
Sequence = GACGATCTCAGACTGGGGACGTGCTAG; result = 0.109 z-score
Sequence = GACGGTCTCGGTATCGGGGCGTGCTAG; result = 1.41 z-score
Sequence = GACGGTTTCGGTTTCAGGACGTGCTAG; result = 10.3 z-score
Sequence = CTTCCCCTCTCTTTCCAACTGTGCTAG; result = 2.37 z-score
Sequence = TTAGGTTCCCCTTTCCTTTAGTGCTAG; result = 5.29 z-score
Sequence = TTAGGTTTCGGTTTCGGTTAGTGCTAG; result = 11.4 z-score
Sequence = GACGATCTCAGTCTAGAGACGTGCTAG; result = 0.621 z-score
Sequence = TTACATATCGGGTTTCGATTAGTGCTA; result = 2.41 z-score
Sequence = TTAGGTCACGGTTTCGGTTAGTGCTAG; result = 3.86 z-score
Sequence = TTAGTTTTCGGGTTTCGATTAGTGCTA; result = 3.97 z-score
Sequence = TCAAAATTTTTTTTCTAACTGTGCTAG; result = 0.0603 z-score
Sequence = TCACATTGCCTATTTTTCACTGTGCTA; result = 0.732 z-score
Sequence = AACTTTTTTTAATTGAGAAGGTGCTAG; result = 0.805 z-score
Sequence = TTTGCTTTCCTTTATGTACTGTGCTAG; result = 5.44 z-score
Sequence = GACGAACTGGGACTGGGGACGTGCTAG; result = -0.659 z-score
Sequence = TTAAGTATCGGGTTTCGGTTAGTGCTA; result = 4.25 z-score
Sequence = TCAGAACTGTTTCTTGAACTGTGCTAG; result = 0.796 z-score
Sequence = TTCGGACTGGGGTTTCGGTTAGTGCTA; result = 2.36 z-score
Sequence = TTAGAACTAAGTCTCGATTAGTGCTAG; result = -0.139 z-score
Sequence = GACGGACTGGGATATCGGGACGTGCTA; result = -0.696 z-score
Sequence = TTAGGACTGGGTATCGGTTGGTGCTAG; result = -0.123 z-score

Sample 2 — method: DHFR PCA, deep sequencing; matrix: yeast; added: (+)-ABA 1.4 µM; reference: wild-type fitted maximum; direction: higher = stronger binding; endpoint: relative binding score
Target: ABI1, truncated, D143A, DHFR fusion (Arabidopsis thaliana)
Notes: methotrexate growth selection, single substitutions
Parent: PYL1, truncated, DHFR fusion (Arabidopsis thaliana); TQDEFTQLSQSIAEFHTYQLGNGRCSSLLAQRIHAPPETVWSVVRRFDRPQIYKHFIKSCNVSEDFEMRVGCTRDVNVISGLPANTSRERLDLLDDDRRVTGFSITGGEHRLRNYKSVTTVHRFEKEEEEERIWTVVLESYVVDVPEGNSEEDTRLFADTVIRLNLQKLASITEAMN
Substitution = C72R; result = 5.63%
Substitution = F103M; result = 8.65%
Substitution = Y115I; result = -2.38%
Substitution = Q31P; result = -9.13%
Substitution = H122Y; result = 5.62%
Substitution = W41G; result = -7.63%
Substitution = E147N; result = 34.1%
Substitution = I12T; result = 3.1%
Substitution = E130L; result = 41%
Substitution = T173V; result = 45.1%
Substitution = I105N; result = -17.7%
Substitution = S59D; result = 54%
Substitution = I172C; result = 7.89%
Substitution = H55E; result = 46.5%
Substitution = K126I; result = 60.7%
Substitution = Q7M; result = 73.3%
Substitution = R155D; result = -41.6%
Substitution = R98K; result = 63.3%
Substitution = S171A; result = 64%
Substitution = V43G; result = -18.5%
Substitution = W41L; result = -6.02%
Substitution = Q7Y; result = 63.1%
Substitution = E152V; result = 23.7%
Substitution = L138C; result = 19.2%
Substitution = D159M; result = -18.2%

Sample 3 — target: CCND3, cyclin fold, Cln2 fusion (human); method: yeast growth competition, sequencing; matrix: yeast; notes: weak parent motif; reference: not given; direction: higher = stronger binding; endpoint: normalised enrichment score
Parent: GMNC docking peptide (human); KNAKRNLSSEFAN; partner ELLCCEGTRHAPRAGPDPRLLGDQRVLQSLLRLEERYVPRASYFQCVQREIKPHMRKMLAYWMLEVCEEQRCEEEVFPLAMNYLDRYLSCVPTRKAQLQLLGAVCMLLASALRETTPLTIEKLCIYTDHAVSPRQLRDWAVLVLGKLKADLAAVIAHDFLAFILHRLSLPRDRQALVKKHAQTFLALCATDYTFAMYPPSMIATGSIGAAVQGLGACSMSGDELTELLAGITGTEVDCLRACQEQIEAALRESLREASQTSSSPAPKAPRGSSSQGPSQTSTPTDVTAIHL
Substitution = A12E; result = 0.298
Substitution = K4L; result = 0.338
Substitution = N6D; result = -0.12
Substitution = R5F; result = 0.18
Substitution = S9L; result = -0.224
Substitution = N6V; result = 0.0877
Substitution = S9Y; result = 0.301
Substitution = F11C; result = -0.03
Substitution = A12F; result = 0.067
Substitution = K4R; result = 0.252
Substitution = N2C; result = 0.263
Substitution = A12I; result = 0.327
Substitution = R5T; result = 0.00192
Substitution = N2R; result = 0.648
Substitution = N6C; result = -0.251
Substitution = F11K; result = -0.117
Substitution = N2T; result = 0.34
Substitution = A12P; result = 0.261
Substitution = L7Y; result = 0.389
Substitution = N2Y; result = 0.346
Substitution = S8M; result = 0.485
Substitution = F11I; result = -0.147
Substitution = E10T; result = 0.437
Substitution = A12Y; result = 0.234
Substitution = R5N; result = 0.281

Sample 4 — method: RNA Bind-n-Seq; form: RNA; matrix: in vitro; tested at: 365 nM; reference: no-protein control; direction: higher = stronger binding; endpoint: RBNS enrichment (R)
Target: RNA binding protein fox-1 homolog 2, RRM domain, GST-SBP tag (RBFOX2, Homo sapiens, UniProt O43251-10, residues 100-194)
Notes: natural RNA segment, single round, ends assumed
All sequences stand within: GGGAGUUCUACAGUCCGACGAUC … UGGAAUUCUCGGGUGCCAA
Residues (chain): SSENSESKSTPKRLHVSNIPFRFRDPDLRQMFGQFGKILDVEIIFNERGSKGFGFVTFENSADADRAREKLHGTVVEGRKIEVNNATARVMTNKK
Sequence = CUCUGUAAAGUUCCUCAUCCCUGUGAAGCAGGGAAAGAACAGAGGUGCCUCUGGACUGCAGGAGAAAGGCGUCGUGCCAGGCAGUAUCCUGUGGAGGGAGGAGGGUGUAC; result = 0.487
Sequence = ACAUACAGUUGGCUGCUUAACAGACUCUCUAGCCGUUCAUUUUUGUGACGUCUCUUUGUUAACCUAAGUAUAUCUAUUUUCGGCAAUAAGGUAAGGACGGCCGUGUUUUG; result = 0.486
Sequence = UUUCCAUUGCCUUAACGCUGGGUGGUCAGGGCCCCAAGGAACUCUGGAUCUAAGCUCAGGAGUACACAUAGCAGCUAUGGGUAUGGGUGUCCUCCUCUGGUGUAACUGUG; result = 0.674
Sequence = AGGGAAAUUGGGGCUAAUGAGAUCAGUGCCAAAUUUCAGCAGAUACCUGUGAGGCUGACACCUGUUGCAGACUAUGGAGUGGUGAGAUUUGGGAAAGUUGGGCUAUAUGU; result = 1.27
Sequence = UCCCGGCCCUUACCUUUCCUGAUGCCCCUGACAUCAUCAUUCUUGUGGGAGACAGCAGCCUGUAUGUGGUGUGGGGCGUGGAUCGAGUGUAGCUGUGAAAUCCAUAUAUA; result = 0.261
Sequence = CUAGUGAAUCGCCACUGUACUGUAAUAAUGGUUAUUUACCUCUGUGCUGUUUUAAUUACCUAACGUCUGUGUAACUGCUGAUUUGAGUAGUGAUUAGCAUUUAGAUAAUG; result = 0.317
Sequence = UCCUCUUUUCAUAAAUGCUCUUGGACAUUAUUGGGCUUGCAGAGUUCCCUUAUUCUGGGGAUUACAAUGCUUUUAUCGUUUCAGGCUUCAUUUUAGCUUCAAAACAAGCU; result = 0.286
Sequence = ACUUUUUAAAGAAAAAAAAACAUGAGGGAAUAAAAGAAAUUCCUAUCAAAAAUCAAAGUGAAAUAAUACCAUCCAGCACUUAACUCUCAGGUCCCAACUAAGUCUGGCCU; result = 0.727
Sequence = UUUGAUUUAGAUUGAGUAAGAUUUACCCAGAAUGUCAGAUUCCUUUCCCUUUAGCACGUUUAAAGUUCUGUGUAUUUAAUUGUAAACUGUACUAGUCUGUGUGGGACUGU; result = 7.79
Sequence = GAUACCAGCAGGCCCUUAAGCCUUCCAGGACACUAAGGUCGUGGGAGCGGGACUGCAACAAGCAAUGCCAGAUAACUGAGAAAUCAUGUUCUUUGUGGACUAUUUCAGAC; result = 0.255
Sequence = AGAGAAGGCCAAGGGCUGCGGACUUCUUUGAGAGCCAGAAGCCCUUUCUGAAGCCUGCUUUUAUACCGGAUGUUCUAUAAAUUAUAACUUUUAAAGUUGGGCUUUUUAAU; result = 0.531
Sequence = UACAUUUUGUUGGGAAGCUGGAUAAGUUUUAGGUGCAGGACCCCAAAUGUUCUGAGACCUUUGGGGCCAUUUAUUACUUUGUACAAGCCCAAUAAUCCUCUCUUUUCUGC; result = 0.328

Excerpt of the above (sample 2):
Substitution = H122Y; result = 5.62%
Substitution = W41G; result = -7.63%
Substitution = E147N; result = 34.1%
Substitution = I12T; result = 3.1%
Substitution = E130L; result = 41%
Substitution = T173V; result = 45.1%
Substitution = I105N; result = -17.7%
Substitution = S59D; result = 54%
Substitution = I172C; result = 7.89%
Substitution = H55E; result = 46.5%
Substitution = K126I; result = 60.7%
Substitution = Q7M; result = 73.3%
Substitution = R155D; result = -41.6%
Substitution = R98K; result = 63.3%
